Measured values collected from several papers.
Numbered parts are unrelated; each lists some results of a single study. Several values in a cell are separate wells, animals, samples, runs or records.
Sequence of UniProt P57059 (whole entry, looked up): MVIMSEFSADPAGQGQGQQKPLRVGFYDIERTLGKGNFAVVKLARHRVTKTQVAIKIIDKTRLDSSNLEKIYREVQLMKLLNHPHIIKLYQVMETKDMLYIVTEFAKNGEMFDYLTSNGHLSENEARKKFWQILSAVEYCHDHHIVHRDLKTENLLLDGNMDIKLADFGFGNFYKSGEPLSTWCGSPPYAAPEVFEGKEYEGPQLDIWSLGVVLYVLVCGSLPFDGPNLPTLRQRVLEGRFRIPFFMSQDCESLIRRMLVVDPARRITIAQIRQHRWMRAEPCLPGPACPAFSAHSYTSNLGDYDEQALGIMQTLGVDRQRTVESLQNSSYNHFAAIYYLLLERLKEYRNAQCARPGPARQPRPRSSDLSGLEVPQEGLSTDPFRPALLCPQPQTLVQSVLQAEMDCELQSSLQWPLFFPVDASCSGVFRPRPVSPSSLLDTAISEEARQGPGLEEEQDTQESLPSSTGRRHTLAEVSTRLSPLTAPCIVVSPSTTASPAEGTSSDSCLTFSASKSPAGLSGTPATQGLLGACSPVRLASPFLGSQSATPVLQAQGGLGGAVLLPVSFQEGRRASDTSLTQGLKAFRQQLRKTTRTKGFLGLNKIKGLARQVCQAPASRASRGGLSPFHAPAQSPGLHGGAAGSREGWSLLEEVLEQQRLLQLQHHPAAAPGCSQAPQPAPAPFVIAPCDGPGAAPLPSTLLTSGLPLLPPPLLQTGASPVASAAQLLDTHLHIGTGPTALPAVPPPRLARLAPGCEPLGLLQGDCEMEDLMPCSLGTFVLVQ
Sequence of UniProt Q96Q40 (whole entry, looked up): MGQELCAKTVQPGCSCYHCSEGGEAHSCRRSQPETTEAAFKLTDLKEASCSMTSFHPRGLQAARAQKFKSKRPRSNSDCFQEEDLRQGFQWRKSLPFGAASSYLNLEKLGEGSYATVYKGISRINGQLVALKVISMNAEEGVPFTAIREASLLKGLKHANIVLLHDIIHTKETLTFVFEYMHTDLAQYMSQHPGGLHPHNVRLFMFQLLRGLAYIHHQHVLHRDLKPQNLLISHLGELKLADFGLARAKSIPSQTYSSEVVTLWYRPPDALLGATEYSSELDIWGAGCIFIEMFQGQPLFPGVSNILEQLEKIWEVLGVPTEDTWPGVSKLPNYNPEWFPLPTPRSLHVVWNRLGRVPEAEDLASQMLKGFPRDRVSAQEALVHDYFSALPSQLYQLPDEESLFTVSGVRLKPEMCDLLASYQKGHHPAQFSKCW
Sequence of UniProt Q15831 (whole entry, looked up): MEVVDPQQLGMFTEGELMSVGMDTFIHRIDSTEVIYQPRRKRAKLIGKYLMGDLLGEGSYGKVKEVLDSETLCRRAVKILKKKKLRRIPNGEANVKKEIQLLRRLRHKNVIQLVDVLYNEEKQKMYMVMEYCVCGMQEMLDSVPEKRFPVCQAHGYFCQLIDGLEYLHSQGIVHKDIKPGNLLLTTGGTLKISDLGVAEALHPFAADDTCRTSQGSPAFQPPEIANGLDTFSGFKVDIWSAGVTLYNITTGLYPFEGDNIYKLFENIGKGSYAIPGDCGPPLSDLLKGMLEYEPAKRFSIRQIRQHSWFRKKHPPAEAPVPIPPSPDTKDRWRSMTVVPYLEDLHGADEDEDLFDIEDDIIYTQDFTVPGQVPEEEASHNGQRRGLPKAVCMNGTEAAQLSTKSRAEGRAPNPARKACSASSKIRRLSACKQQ
Sequence of UniProt Q9H4B4 (whole entry, looked up): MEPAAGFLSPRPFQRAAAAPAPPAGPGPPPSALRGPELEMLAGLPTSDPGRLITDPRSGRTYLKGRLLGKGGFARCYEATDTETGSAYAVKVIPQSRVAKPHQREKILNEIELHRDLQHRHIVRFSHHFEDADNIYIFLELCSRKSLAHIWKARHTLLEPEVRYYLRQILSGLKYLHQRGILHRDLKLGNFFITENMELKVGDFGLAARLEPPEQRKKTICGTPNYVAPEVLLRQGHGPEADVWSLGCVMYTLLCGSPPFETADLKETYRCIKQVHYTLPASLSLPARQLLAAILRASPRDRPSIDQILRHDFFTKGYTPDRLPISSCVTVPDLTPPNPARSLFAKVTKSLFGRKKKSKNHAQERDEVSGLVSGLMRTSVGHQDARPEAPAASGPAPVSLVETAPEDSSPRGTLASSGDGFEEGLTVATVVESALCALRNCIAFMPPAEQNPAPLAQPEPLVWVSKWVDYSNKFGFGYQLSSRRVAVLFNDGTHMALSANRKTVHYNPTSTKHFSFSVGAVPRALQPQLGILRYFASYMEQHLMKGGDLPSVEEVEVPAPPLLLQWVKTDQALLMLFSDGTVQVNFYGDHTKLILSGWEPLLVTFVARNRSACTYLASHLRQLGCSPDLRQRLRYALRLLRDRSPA
Sequence of UniProt Q8NE63 (whole entry, looked up): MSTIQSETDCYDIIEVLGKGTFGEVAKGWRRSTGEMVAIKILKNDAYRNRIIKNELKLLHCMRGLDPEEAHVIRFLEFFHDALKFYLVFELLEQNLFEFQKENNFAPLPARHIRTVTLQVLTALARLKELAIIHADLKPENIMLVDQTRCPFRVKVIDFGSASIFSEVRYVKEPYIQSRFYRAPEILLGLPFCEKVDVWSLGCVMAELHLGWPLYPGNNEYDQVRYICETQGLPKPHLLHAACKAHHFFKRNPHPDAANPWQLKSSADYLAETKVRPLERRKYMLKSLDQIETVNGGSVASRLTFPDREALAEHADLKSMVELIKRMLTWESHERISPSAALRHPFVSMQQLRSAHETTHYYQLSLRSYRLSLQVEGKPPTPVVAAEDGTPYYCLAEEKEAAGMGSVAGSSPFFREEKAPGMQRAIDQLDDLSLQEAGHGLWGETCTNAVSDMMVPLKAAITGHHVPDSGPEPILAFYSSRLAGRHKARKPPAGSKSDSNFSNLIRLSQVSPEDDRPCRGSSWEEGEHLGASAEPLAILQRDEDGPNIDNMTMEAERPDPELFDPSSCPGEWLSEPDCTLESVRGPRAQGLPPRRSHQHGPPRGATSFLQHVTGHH

Series 1
SMILES: Cc1ccc(O)c(C)c1-c1cnc2[nH]c(-c3cnc(N4CCC5(CC4)CC(N4CCN(c6ccc(N[C@H]7CCC(=O)N(C)C7=O)cc6F)CC4)CO5)nc3)cc2c1C#N (single isomer, unassigned)
Measurement: inhibition
PKMYT1: Membrane-associated tyrosine- and threonine-specific cdc2-inhibitory kinase (PKMYT1, Homo sapiens, UniProt Q99640)
Sequence of UniProt Q99640 (whole entry, looked up): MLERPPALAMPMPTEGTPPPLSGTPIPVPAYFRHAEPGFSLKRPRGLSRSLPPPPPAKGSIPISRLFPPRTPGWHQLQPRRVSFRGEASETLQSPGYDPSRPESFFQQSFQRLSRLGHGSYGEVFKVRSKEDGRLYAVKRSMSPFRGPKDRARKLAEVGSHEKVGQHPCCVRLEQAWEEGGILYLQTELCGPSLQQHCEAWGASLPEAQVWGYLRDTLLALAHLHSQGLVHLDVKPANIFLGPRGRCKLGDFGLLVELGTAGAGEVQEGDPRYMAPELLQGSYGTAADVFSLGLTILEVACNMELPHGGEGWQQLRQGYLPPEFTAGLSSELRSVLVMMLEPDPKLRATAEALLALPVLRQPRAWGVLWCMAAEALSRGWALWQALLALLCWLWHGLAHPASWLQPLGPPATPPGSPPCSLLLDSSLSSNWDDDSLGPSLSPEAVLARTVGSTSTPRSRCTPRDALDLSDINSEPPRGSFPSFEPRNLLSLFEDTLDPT
PKMYT1; enzyme activity, inhibitor; 1 µM: 97.6% and 94.3%
HCC1569; automated capillary immunoblot, refers to: CDK1 phospho-Thr14; 333.33 nM, 24 h: 77.8%
PKMYT1; enzyme activity, inhibitor; 12.35 nM: 57.8% and 60.2%
PKMYT1; enzyme activity, inhibitor; 37.04 nM: 86.5% and 85.7%
HCC1569; automated capillary immunoblot, refers to: CDK1 phospho-Thr14; 111.11 nM, 24 h: 56.9%
PKMYT1; enzyme activity, inhibitor; 150 pM: -1.09% and -4.97%
PKMYT1; kinase activity, inhibitor; 0.3333 µM: 96.8% and 98%
HCC1569; automated capillary immunoblot, refers to: CDK1 phospho-Thr14; 0.02 nM, 24 h: -0.184%

Series 2
Target: E3 ubiquitin-protein ligase NEDD4, HECT domain (Homo sapiens, UniProt P46934)
Effect on: enzyme activity
Action: inhibitor
Method: Ub-TR-FRET
Matrix: HECT domain
Tested at: 11.11 µM
Reading: higher = more chain formation
Measurement: ubiquitin chain formation AUC
Residues (P46934 938-1319, limits assumed): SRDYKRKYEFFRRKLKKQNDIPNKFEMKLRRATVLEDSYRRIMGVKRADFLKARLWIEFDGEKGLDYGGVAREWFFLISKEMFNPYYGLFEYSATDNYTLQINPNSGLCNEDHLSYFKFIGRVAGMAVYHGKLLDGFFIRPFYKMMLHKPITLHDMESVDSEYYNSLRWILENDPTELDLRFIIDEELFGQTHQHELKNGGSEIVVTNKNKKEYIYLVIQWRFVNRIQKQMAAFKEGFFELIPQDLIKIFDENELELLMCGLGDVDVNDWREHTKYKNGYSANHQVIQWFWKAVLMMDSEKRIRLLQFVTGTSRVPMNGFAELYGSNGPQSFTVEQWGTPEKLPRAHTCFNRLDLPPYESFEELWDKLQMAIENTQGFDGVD
CCOC(=O)/C=C/CNCCCCN1c2cc(Cl)ccc2CCc2cnn(C)c21.O=C(O)/C=C\C(=O)O: 7440 a.u. and 14400 a.u. and 14800 a.u. and 7520 a.u. and 14500 a.u. and 8170 a.u.
COC(=O)/C=C/C(=O)NCCCN1c2ccccc2CCc2ccc(Cl)cc21: 167000 a.u. and 168000 a.u. and 160000 a.u.
CCOC(=O)/C=C/CNCCCCN1c2cc(Cl)ccc2COc2ccccc21.O=C(O)/C=C\C(=O)O: 11100 a.u. and 10900 a.u.
CCOC(=O)/C=C/CN(CC)CCCCN1c2ccccc2CCc2ccc(Cl)cc21.O=C(O)/C=C\C(=O)O: 15100 a.u. and 13100 a.u. and 13400 a.u. and 16900 a.u. and 14300 a.u.
CCOC(=O)/C=C/CN(CCCCN1c2ccccc2CCc2ccc(Cl)cc21)C(C)C.O=C(O)/C=C\C(=O)O: 16800 a.u. and 12700 a.u. and 13300 a.u. and 16200 a.u. and 16500 a.u. and 11900 a.u.
CC(C)ONC(=O)/C=C/CNCCCCN1c2ccccc2CCc2ccc(Cl)cc21.O=C(O)/C=C\C(=O)O: 5040 a.u. and 5120 a.u. and 5420 a.u. and 5340 a.u. and 5060 a.u. and 5280 a.u.
CNC(=O)/C=C/CNCCCCN1c2ccccc2CCc2ccc(Cl)cc21.Cl: 56800 a.u. and 62700 a.u. and 53200 a.u. and 65700 a.u. and 45700 a.u. and 46700 a.u.
CCOC(=O)/C=C/CNCCCCN1c2cc(Cl)ccc2C(=O)N(C)c2ccccc21.O=C(O)/C=C\C(=O)O: 9960 a.u. and 9590 a.u. and 10700 a.u.
COC(=O)CCCNCCCN1c2ccccc2CCc2ccc(Cl)cc21.COC(=O)CCCNCCCN1c2ccccc2CCc2ccc(Cl)cc21.O=C(O)/C=C/C(=O)O: 116000 a.u. and 118000 a.u. and 113000 a.u.
CN(C)C/C=C/C(=O)NCCCN1c2ccccc2CCc2ccc(Cl)cc21: 114000 a.u. and 112000 a.u. and 117000 a.u.
Cl.NC(=O)/C=C/CNCCCN1c2ccccc2CCc2ccc(Cl)cc21: 117000 a.u. and 115000 a.u. and 118000 a.u.

Series 3
Compound: C[C@@H]1CN(c2ccc(-c3cc(C(=O)NCCOCCOCCOCCOCCNC(=O)Cn4cc(-c5[nH]cc(C(=O)N[C@@H](CC(N)=O)c6ccc(F)c(Cl)c6)c5-c5ccc(Cl)cc5F)cn4)ccc3F)cc2NC(=O)c2c[nH]c(=O)cc2C(F)(F)F)C[C@H](C)N1C
Effect on: thermal unfolding
Method: differential scanning fluorimetry
Tested at: 5.5 µM
Reading: higher = more unfolded
Measurement: SYPRO Orange fluorescence
WDR5: WD repeat-containing protein 5 (WDR5, Homo sapiens, UniProt P61964)
DCAF1: DDB1- and CUL4-associated factor 1 (DCAF1, Homo sapiens, UniProt Q9Y4B6)
Sequence of UniProt Q9Y4B6 (whole entry, looked up): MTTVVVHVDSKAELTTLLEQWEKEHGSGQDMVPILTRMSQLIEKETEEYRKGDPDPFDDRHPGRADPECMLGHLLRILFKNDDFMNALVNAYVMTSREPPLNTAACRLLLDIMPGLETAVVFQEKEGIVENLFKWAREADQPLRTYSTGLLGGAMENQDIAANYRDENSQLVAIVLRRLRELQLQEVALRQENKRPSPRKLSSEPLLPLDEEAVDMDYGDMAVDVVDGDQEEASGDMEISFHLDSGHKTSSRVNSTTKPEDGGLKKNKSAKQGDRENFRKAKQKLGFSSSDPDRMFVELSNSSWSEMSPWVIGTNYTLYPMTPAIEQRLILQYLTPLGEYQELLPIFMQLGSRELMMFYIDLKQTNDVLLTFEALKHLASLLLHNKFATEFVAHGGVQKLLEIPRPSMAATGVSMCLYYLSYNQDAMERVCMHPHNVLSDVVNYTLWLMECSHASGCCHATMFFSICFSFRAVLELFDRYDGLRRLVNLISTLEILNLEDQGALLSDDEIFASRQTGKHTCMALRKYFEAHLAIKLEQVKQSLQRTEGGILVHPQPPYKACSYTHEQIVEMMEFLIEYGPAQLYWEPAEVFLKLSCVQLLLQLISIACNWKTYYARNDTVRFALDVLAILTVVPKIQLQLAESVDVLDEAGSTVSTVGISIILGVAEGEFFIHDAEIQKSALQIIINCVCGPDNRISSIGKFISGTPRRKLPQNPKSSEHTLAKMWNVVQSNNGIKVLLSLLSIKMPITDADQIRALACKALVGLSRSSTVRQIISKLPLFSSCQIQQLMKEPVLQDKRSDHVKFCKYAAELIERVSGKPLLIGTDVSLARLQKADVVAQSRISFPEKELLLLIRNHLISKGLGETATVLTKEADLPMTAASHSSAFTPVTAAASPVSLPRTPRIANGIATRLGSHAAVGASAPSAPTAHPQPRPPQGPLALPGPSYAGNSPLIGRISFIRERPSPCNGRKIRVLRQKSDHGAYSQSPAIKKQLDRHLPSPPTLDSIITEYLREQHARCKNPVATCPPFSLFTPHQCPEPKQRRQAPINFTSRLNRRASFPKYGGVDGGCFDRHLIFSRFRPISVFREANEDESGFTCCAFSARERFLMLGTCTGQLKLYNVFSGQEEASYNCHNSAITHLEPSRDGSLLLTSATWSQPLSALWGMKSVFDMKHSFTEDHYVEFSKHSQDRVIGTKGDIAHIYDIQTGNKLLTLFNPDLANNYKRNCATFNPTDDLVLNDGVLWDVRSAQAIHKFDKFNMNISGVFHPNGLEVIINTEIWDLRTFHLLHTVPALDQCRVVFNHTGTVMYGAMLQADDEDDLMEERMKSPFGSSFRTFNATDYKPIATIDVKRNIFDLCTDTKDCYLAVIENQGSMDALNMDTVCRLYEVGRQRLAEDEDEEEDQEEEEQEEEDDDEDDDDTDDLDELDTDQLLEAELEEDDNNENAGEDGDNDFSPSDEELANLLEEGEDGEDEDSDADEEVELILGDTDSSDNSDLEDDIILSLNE
WDR5; 38 °C: 14400 a.u.
WDR5; 56.61 °C: 12800 a.u.
DCAF1; 44 °C: 11800 a.u.
WDR5; 86.01 °C: 41500 a.u.
DCAF1; 73.61 °C: 50800 a.u.
DCAF1; 48.4 °C: 13600 a.u.
DCAF1; 84.01 °C: 40800 a.u.
DCAF1; 82.81 °C: 41800 a.u.
DCAF1; 26.8 °C: 7710 a.u.
WDR5; 70.41 °C: 6980 a.u.
DCAF1; 29.8 °C: 8220 a.u.

Series 4
Structure (SMILES): CC[C@@]1(c2ccccc2)C2=C(CC(C)(C)CC2=O)Nc2n[nH]cc21
Tested at: 1 µM
Measurement: remaining binding
Proto-oncogene tyrosine-protein kinase receptor Ret (RET, Homo sapiens, UniProt P07949, V804L); binding, competition with immobilised ligand: 100%
Epidermal growth factor receptor (EGFR, Homo sapiens, UniProt P00533, L858R/T790M); binding, competition with immobilised ligand: 100%
Phosphatidylinositol 5-phosphate 4-kinase type-2 gamma (PIP4K2C, Homo sapiens, UniProt Q8TBX8); binding, competition with immobilised ligand: 91%
Serine/threonine-protein kinase STK11 (STK11, Homo sapiens, UniProt Q15831); kinase binding, KINOMEscan; reference: DMSO control: 71%
Calcium/calmodulin-dependent protein kinase type II subunit beta (CAMK2B, Homo sapiens, UniProt Q13554); kinase binding, KINOMEscan; reference: DMSO control: 96%
Activin receptor type-2B (ACVR2B, Homo sapiens, UniProt Q13705); binding, competition with immobilised ligand: 100%
Misshapen-like kinase 1 (MINK1, Homo sapiens, UniProt Q8N4C8); binding, competition with immobilised ligand: 86%
Protein-tyrosine kinase 6 (PTK6, Homo sapiens, UniProt Q13882); binding, competition with immobilised ligand: 97%
Serine/threonine-protein kinase PLK3 (PLK3, Homo sapiens, UniProt Q9H4B4); kinase binding, KINOMEscan; reference: DMSO control: 100%
Serine/threonine-protein kinase TAO3 (TAOK3, Homo sapiens, UniProt Q9H2K8); binding, competition with immobilised ligand: 100%
Cyclin-dependent kinase 15 (CDK15, Homo sapiens, UniProt Q96Q40); kinase binding, KINOMEscan; reference: DMSO control: 100%
Serine/threonine-protein kinase SIK1 (SIK1, Homo sapiens, UniProt P57059); KINOMEscan: 100%
Cyclin-G-associated kinase (GAK, Homo sapiens, UniProt O14976); binding, competition with immobilised ligand: 100%
Mitogen-activated protein kinase kinase kinase 1 (MAP3K1, Homo sapiens, UniProt Q13233); kinase binding, KINOMEscan; reference: DMSO control: 100%
Death-associated protein kinase 3 (DAPK3, Homo sapiens, UniProt O43293); binding, competition with immobilised ligand: 97%
Ephrin type-A receptor 8 (EPHA8, Homo sapiens, UniProt P29322); kinase binding, KINOMEscan; reference: DMSO control: 100%
Mast/stem cell growth factor receptor Kit (KIT, Homo sapiens, UniProt P10721, L576P); binding, competition with immobilised ligand: 64%
Interleukin-1 receptor-associated kinase 4 (IRAK4, Homo sapiens, UniProt Q9NWZ3); binding, competition with immobilised ligand: 98%
Homeodomain-interacting protein kinase 4 (HIPK4, Homo sapiens, UniProt Q8NE63); kinase binding, KINOMEscan; reference: DMSO control: 100%
Serine/threonine-protein kinase Nek9 (NEK9, Homo sapiens, UniProt Q8TD19); kinase binding, KINOMEscan; reference: DMSO control: 100%
Serine/threonine-protein kinase PAK 6 (PAK6, Homo sapiens, UniProt Q9NQU5); binding, competition with immobilised ligand: 100%
Receptor-type tyrosine-protein kinase FLT3 (FLT3, Homo sapiens, UniProt P36888, D835Y); binding, competition with immobilised ligand: 100%

Excerpt of the above (series 3):
WDR5; 38 °C: 14400 a.u.
WDR5; 56.61 °C: 12800 a.u.
DCAF1; 44 °C: 11800 a.u.
WDR5; 86.01 °C: 41500 a.u.
DCAF1; 73.61 °C: 50800 a.u.
DCAF1; 48.4 °C: 13600 a.u.
DCAF1; 84.01 °C: 40800 a.u.
DCAF1; 82.81 °C: 41800 a.u.
